Assay results gathered from unrelated publications.
Numbered parts are unrelated; each lists some results of a single study.

Sample 1
Target: Histone acetyltransferase KAT6A, winged helix 1, GST fusion (KAT6A, Homo sapiens, UniProt Q92794, residues 1-85)
Method: protein binding microarray
Form: double-stranded DNA, one strand shown
Sample: in vitro
Concentration: not given
Notes: 8-mer, flanks averaged, mean of 2 arrays, mostly near background
Reference: not given
Reading: higher = stronger binding
Residues (chain): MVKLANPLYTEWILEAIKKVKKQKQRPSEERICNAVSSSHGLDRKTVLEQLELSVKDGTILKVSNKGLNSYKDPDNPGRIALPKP
`GATCATTA` has an E-score of 0.0554.
With `GGAACAAC` the E-score was 0.0477.
`CGCTACCC` has an E-score of 0.234.
`AGCCCGAG` has an E-score of 0.08.
`ACGTTCCT` has an E-score of -0.104.
The E-score of `GATCACGC` is reported as 0.111.
`CCGGGGGC` gave an E-score of 0.306.
For `ACCAGAGG`, the E-score was -0.223.
The E-score of `AAGTCTCC` is reported as -0.136.
The E-score of `TCAAGTGA` is reported as -0.246.
The E-score of `CCACGCGA` is reported as 0.00299.
`GAGACACA` gave an E-score of -0.087.
`TACGTCCA` gave an E-score of -0.134.
`GCTGTTCA` gave an E-score of -0.157.
The E-score of `CTCTCCTA` is reported as -0.0482.
For `ACCCTTAG`, the E-score was -0.152.
`GGACGTCA` has an E-score of 0.00455.
With `CGCATGTC` the E-score was 0.206.
`GTTCCTTA` has an E-score of -0.12.
`CATACCGA` has an E-score of 0.0177.

Sample 2
Target: Sal-like protein 4, full length isoform A (SALL4, Homo sapiens, UniProt Q9UJQ4, residues 1-1053)
Sequence of UniProt Q9UJQ4 (whole entry, looked up): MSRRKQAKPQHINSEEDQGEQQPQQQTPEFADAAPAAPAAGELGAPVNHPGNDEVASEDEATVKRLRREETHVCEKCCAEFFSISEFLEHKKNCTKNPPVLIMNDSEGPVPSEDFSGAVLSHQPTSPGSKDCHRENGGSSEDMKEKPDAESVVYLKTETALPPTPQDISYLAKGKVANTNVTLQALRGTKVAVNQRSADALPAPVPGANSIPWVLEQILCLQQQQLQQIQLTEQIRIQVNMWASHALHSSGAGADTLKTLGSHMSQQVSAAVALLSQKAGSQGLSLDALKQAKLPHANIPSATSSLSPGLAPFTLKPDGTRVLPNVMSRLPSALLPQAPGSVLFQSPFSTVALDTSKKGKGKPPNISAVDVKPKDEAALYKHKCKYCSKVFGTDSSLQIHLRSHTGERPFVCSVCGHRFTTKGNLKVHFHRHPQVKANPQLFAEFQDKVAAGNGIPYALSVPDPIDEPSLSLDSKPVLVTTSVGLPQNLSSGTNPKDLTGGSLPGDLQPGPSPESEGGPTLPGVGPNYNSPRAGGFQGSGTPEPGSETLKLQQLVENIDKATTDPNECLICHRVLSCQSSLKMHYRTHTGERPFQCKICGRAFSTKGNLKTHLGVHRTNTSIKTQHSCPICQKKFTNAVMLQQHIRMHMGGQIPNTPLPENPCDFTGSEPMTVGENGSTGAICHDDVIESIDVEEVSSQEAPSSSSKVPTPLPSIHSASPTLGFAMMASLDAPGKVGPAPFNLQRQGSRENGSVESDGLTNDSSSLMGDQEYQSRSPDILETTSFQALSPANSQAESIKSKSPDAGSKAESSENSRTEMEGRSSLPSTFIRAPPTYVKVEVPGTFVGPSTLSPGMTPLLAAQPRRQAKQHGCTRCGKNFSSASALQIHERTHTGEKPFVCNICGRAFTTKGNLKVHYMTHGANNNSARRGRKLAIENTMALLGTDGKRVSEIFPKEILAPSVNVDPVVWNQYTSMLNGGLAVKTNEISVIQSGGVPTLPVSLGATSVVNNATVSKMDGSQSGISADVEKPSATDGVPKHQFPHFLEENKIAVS
Method: universal PBM
Form: double-stranded DNA, one strand shown
Sample: in vitro
Concentration: 600 nM
Notes: 8-mer, flanks averaged, mean of replicates
Reading: higher = stronger binding
With `ACAGGGGG` the E-score was -0.262.
`AAAATTAG` has an E-score of 0.266.
For `AAGAATCT`, the E-score was 0.0174.
`GCGAAACA` gave an E-score of -0.0556.
For `TACTCCGA`, the E-score was -0.0304.
With `AAGAATGC` the E-score was 0.141.
With `CGTATCAC` the E-score was 0.0137.
`TAAATCGA` has an E-score of 0.256.
`CCCTCGAC` has an E-score of -0.291.
For `CTAAGAAA`, the E-score was 0.144.
`TCCACCCA` gave an E-score of -0.128.
`ACCTGGTC` gave an E-score of -0.278.
The E-score of `ACACTTCG` is reported as 0.0595.
`ACCAAGGA` has an E-score of -0.00252.
`ATAACAAG` has an E-score of 0.322.

Sample 3
Target: Centromere-binding protein 1, full length, His-tagged (CBF1, Saccharomyces cerevisiae, UniProt P17106, residues 1-351)
Sequence of UniProt P17106 (whole entry, looked up): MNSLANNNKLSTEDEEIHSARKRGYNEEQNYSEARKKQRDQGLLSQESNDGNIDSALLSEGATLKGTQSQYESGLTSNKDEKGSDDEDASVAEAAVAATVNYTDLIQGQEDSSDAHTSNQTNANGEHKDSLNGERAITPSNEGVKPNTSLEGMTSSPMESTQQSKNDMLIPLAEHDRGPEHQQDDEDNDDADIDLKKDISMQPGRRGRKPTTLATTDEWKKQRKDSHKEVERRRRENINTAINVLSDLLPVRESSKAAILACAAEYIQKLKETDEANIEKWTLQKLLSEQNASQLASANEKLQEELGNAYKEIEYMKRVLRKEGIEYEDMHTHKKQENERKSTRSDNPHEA
Method: competition protein-binding microarray
Form: double-stranded DNA, one strand shown
Sample: in vitro
Concentration: 2 µM
Notes: whole 60-bp probe, lowest competitor level
With: Pho4 competitor, 0.05 µM
Reading: higher = stronger binding
`GTCTTGTCTCATTGTCACGTGACTTTCCCCACTTCAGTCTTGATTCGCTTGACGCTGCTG` gave a fluorescence intensity of 21500 a.u.
`ATTGGGATAACCAGGCACACGCTAATGCGAGATAGCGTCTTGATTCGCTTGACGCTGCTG` gave a fluorescence intensity of 73.9 a.u.
For `AAAACAAGATTCTCCACCGTGATGGAAAACCTCAAAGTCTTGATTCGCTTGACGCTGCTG`, the fluorescence intensity was 90.2 a.u.
With `GTTGTTGCTATCCATCACGTGATGGATTTTTCCGAGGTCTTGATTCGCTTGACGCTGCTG` the fluorescence intensity was 11900 a.u.
With `TGCGCAACAACTTGGTTGGTGGGTGTATGTCTAGAAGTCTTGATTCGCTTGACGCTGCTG` the fluorescence intensity was 59.2 a.u.
With `TGCGCAACAACTTGACGTGTGGGTGTATGTCTAGAAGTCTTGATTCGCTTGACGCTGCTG` the fluorescence intensity was 73.8 a.u.
For `CAGTTATGAGACTGTATCATGACAATACCTTATTTGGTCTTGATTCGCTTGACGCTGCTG`, the fluorescence intensity was 84 a.u.
`CTTCTGTAAATTTGCAGTGTGGGTGGACGCGCCCCGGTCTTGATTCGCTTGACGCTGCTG` gave a fluorescence intensity of 68 a.u.
For `AGTTTCAGAGGTGGACACATGGGAGCCAACAGCTCAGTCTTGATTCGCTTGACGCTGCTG`, the fluorescence intensity was 76.9 a.u.

Single results of other studies
The fold induction of `PhoQ, residues 284 288 289 292 302 303 SLANIV` is reported as 11.1 (PhoP, residues 12 14 15 18 19 ICWRQ (Escherichia coli, UniProt P23836); Sort-seq, measured: YFP reporter; E. coli; PhoQ-PhoP variant library, with: 10 µM Mg2+; reference: high Mg2+ state, higher = stronger signaling).

Excerpt of the above (sample 2):
`ACCTGGTC` gave an E-score of -0.278.
The E-score of `ACACTTCG` is reported as 0.0595.
`ACCAAGGA` has an E-score of -0.00252.
